# Measurements from different studies.
# Every numbered part comes from another study and shows a few of its results, in no order.
# UniProt P35968, sequence (whole entry, looked up): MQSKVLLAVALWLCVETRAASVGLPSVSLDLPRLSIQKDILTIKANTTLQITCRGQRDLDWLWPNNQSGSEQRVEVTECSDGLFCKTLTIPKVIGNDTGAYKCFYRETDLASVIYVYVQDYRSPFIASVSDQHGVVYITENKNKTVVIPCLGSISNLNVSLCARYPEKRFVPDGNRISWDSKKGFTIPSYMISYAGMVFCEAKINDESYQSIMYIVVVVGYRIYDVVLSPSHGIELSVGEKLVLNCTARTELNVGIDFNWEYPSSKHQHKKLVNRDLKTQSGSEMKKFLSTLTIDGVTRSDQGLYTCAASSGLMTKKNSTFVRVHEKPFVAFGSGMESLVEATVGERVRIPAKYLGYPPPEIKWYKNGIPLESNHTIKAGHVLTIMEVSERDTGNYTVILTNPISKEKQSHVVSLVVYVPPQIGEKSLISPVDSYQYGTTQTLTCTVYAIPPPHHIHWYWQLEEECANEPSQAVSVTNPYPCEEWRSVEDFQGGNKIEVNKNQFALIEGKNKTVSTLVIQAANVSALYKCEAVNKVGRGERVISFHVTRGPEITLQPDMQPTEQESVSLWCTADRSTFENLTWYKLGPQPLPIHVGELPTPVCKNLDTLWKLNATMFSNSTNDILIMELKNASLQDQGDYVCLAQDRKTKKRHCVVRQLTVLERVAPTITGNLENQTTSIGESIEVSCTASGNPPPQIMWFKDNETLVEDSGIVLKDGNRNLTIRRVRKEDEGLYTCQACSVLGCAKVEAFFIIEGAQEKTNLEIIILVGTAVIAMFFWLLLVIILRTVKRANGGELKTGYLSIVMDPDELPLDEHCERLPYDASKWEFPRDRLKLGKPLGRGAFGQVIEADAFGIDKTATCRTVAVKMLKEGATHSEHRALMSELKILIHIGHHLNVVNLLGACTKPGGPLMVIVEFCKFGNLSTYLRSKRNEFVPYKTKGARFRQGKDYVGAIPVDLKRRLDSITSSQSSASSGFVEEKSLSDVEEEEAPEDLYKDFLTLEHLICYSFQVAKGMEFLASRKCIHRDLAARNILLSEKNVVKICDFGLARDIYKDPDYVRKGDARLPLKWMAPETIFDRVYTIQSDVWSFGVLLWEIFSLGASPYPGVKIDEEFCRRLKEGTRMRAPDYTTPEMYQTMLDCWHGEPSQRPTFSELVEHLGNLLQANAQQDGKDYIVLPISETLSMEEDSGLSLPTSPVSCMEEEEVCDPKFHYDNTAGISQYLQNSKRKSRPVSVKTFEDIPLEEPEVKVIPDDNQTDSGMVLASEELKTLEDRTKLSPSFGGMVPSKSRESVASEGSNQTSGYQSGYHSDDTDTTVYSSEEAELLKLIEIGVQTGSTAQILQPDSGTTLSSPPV
# UniProt P42684, sequence (whole entry, looked up): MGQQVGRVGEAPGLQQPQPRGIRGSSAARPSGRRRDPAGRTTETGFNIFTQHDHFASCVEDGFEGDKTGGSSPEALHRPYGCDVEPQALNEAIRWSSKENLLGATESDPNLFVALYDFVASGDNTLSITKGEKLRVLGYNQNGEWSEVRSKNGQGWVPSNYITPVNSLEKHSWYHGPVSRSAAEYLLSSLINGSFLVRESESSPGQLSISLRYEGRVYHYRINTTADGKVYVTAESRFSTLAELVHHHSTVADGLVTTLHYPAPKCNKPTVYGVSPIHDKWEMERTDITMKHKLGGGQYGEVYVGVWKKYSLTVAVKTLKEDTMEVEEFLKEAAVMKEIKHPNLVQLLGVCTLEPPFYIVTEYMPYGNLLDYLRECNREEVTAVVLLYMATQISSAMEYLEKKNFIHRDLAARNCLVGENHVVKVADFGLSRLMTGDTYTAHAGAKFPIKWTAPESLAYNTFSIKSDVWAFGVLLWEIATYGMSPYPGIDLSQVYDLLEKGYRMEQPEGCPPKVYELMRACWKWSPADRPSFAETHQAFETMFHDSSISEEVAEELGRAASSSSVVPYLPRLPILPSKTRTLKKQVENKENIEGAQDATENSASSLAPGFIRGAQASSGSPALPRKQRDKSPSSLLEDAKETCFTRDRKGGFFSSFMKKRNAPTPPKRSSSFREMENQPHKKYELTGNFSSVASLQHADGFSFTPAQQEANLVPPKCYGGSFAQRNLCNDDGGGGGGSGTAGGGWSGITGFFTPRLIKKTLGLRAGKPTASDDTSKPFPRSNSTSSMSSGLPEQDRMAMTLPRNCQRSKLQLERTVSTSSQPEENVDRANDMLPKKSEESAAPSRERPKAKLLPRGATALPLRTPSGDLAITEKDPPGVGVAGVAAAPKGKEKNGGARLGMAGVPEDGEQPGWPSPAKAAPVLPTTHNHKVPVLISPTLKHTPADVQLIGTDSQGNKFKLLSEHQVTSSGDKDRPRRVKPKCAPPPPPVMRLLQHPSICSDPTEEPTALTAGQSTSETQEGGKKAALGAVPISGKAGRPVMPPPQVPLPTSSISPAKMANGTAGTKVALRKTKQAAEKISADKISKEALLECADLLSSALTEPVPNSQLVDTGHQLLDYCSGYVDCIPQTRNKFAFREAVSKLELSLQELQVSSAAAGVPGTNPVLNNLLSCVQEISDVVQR
# UniProt Q9Y2H1, sequence (whole entry, looked up): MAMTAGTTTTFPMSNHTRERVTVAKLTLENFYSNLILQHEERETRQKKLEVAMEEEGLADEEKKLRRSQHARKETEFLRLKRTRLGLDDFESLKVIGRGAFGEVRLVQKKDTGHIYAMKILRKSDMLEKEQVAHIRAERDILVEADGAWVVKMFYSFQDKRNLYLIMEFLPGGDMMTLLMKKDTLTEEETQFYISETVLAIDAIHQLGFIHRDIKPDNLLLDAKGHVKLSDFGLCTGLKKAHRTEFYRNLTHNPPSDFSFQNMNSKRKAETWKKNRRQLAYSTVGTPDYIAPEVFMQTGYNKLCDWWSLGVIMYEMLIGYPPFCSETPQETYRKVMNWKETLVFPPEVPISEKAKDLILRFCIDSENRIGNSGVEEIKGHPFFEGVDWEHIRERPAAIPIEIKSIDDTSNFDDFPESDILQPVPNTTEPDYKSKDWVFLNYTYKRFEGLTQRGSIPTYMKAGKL
# UniProt Q8N568, sequence (whole entry, looked up): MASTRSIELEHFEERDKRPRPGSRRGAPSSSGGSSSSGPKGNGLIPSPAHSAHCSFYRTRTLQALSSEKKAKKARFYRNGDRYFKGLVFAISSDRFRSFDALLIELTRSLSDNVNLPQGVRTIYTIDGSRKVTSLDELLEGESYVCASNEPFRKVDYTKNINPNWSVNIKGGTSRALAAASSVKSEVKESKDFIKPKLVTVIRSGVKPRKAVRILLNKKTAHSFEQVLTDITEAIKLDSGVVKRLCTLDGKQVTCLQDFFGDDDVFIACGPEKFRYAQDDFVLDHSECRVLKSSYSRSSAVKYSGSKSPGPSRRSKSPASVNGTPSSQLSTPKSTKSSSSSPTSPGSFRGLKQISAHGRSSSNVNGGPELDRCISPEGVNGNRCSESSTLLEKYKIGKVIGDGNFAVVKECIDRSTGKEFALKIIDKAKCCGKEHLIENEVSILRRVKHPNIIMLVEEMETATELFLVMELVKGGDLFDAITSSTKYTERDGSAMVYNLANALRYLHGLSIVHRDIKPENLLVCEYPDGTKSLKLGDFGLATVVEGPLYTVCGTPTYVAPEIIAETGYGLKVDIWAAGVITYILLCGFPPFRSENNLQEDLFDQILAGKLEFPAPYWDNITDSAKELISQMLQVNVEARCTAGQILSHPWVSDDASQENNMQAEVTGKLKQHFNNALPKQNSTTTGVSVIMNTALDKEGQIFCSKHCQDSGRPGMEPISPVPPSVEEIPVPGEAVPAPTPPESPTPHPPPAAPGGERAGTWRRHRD
# UniProt O14730, sequence (whole entry, looked up): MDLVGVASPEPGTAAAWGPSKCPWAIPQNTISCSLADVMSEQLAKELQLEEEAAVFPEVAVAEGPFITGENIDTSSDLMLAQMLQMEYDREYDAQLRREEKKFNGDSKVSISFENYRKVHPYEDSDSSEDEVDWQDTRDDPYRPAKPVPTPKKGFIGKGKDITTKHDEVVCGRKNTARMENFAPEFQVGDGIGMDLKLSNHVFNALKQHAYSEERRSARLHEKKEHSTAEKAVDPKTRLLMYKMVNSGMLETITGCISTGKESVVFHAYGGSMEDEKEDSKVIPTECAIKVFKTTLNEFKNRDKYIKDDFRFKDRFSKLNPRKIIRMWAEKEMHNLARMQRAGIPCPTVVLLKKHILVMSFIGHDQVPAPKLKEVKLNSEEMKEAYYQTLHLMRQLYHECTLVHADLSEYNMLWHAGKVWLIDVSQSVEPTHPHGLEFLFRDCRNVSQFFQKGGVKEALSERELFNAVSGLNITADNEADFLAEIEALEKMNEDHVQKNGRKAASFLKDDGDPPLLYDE
# UniProt Q96GD4, sequence (whole entry, looked up): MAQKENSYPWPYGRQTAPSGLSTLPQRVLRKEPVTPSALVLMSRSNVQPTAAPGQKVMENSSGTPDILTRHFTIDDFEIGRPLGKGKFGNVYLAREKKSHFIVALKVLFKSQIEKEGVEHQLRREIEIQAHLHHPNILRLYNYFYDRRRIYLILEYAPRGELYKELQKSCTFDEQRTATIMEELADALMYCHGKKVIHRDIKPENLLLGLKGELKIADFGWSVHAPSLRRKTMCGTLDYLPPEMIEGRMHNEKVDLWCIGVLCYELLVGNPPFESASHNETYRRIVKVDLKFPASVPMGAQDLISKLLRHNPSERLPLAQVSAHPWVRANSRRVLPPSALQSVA
# UniProt P49137, sequence (whole entry, looked up): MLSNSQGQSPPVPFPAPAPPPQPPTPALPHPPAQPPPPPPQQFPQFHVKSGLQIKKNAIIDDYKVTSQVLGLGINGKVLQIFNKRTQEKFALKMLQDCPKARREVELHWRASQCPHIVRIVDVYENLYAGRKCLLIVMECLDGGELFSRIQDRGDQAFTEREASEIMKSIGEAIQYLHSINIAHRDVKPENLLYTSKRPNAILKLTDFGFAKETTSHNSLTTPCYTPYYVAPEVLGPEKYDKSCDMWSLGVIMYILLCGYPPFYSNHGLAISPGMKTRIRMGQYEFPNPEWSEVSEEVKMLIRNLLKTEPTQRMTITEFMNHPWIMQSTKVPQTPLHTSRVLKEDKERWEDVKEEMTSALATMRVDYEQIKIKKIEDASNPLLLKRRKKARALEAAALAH

# Study 1
# Host: human
# Matrix: microsomes or S9
# Concentration: 2 µM
# Time: 0.5 h
Compound,remaining compound [%]
COc1cc(CN2CCN(S(=O)(=O)c3ccc(NC(C)=O)cc3)CC2)cc(OC)c1OC,78.9
CC(=O)N1c2ccc(S(=O)(=O)Nc3ccc(C(=O)c4c(C)nc5sccn45)cc3)cc2CC1C (centres unmarked),38.5
COc1cc2c(cc1OC)CCN(C(C)C(=O)NC(C)C)CC2 (centres unmarked),3.34
Cn1ccc2c(-c3ccc(-c4nnco4)cc3)ccnc21,> 99.9
Cc1ccc(C2CC(=O)Nc3c2c(C)nn3-c2ccc(N3CCCCC3)nn2)cc1C (centres unmarked),> 100
O=[N+]([O-])c1cccc(F)c1COc1cccc(C(F)(F)F)c1,32.6

# Study 2
# SMILES: COc1cc(-c2cn(C3CCc4c(F)cccc4N(CC(F)(F)F)C3=O)nn2)ccc1-n1cnc(C)c1 (centres unmarked)
# Read-out: cell-free assay
# Method: competition with immobilised ligand
# Concentration: 1 µM
target,remaining binding [%]
"Tyrosine-protein kinase ABL1, phosphorylated (ABL1, Homo sapiens, UniProt P00519, Y253F)",100
"CSNK1E (Homo sapiens, UniProt P49674)",80
"Aurora kinase B (AURKB, Homo sapiens, UniProt Q96GD4)",100
"DCLK2 (Homo sapiens, UniProt Q8N568)",100
"RIOK3 (Homo sapiens, UniProt O14730)",100
"KDR (Homo sapiens, UniProt P35968)",100
"STK38L (Homo sapiens, UniProt Q9Y2H1)",78
"ABL2 (Homo sapiens, UniProt P42684)",100
"MAPKAPK2 (Homo sapiens, UniProt P49137)",100
"ALK (Homo sapiens, UniProt Q9UM73, C1156Y)",100
"EGFR (Homo sapiens, UniProt P00533, L858R/T790M)",82
"KIT (Homo sapiens, UniProt P10721, D816H)",67
"DDR2 (Homo sapiens, UniProt Q16832)",100

# Study 3
# Target: RING finger protein unkempt homolog, zinc fingers 1-6, GST-SBP tag (UNK, Homo sapiens, UniProt Q9C0B0, residues 30-357)
# Method: RNA Bind-n-Seq
# Form: RNA
# Matrix: in vitro
# Concentration: not given
# Notes: RNA with constant flanks, ends assumed
# Baseline: input RNA pool
# Direction: higher = stronger binding
# Constant ends, left off below: GGGAGUUCUACAGUCCGACGAUC … CAACAGAGGAUUGAGCAUCA
# Target sequence (chain): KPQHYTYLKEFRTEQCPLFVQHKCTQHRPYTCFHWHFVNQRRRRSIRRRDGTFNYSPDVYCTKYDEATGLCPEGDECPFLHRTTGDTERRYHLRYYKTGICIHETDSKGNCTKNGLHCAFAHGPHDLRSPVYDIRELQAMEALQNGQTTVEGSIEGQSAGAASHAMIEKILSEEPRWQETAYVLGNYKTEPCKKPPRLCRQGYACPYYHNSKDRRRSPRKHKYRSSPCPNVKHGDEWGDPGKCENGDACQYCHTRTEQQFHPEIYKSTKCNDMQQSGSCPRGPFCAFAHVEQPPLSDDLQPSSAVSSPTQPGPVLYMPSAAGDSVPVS
Oligonucleotide,bound/input enrichment
AUCAUACACUUCCUUCUUUUUUAAAAAAGUUGGGUUUUCUCCAUUCAGGAUUCUGUUCCUCCGGUUUUUUUCCUUCUGAAGUGUUUCACGAGAGCCCGGGAGCUGCUGCCCUGCGGCCCC,0.276 ratio
UUUAUGAUAGUUUUGUUAGGUGACAGGACCAAAUGAAAAUAUUUUAUGUUUUCUCAUCACUUCCGAUUUUAUCAUUAUGUACAUUACUGGGUUUUUAGCAUUUCCUAAUGUGAAGUUUUA,1.67 ratio
UCUUCCUUUCCUUCUGUCUGUCUGACUCCUGGGUCUGUGCGCCAUGGCAUGAGUGUUUUCCCGCCGCCGACUGGAGUAGUAGACUGUUUCUAAGAACAGAUGAUCUGGUUCCUGAUGUGU,0.165 ratio
AGUAUCAAUUGUGUGAGCUUGGGUGCGAGUGCACGCGUGCGUGAGUACGGAGAGUAUAUACCGAUCUCUAUCUCUUAGCAAAGGUGAAUGCCAGAUGUAAAUGGCGCCUCUGGGCAAAGG,0.496 ratio
CAAAGCAACCUUUCCCUUCCCCCGAGUGAUUUUGCGAAACCCCCUUUUCCCUUCAGCUUGCUCCGAUGUUCCAAAUUUAGAAAGCUUAAGGCGGCCUACAGAAAAAGGAAAAAAGGCCAC,1.57 ratio
UUCUAUCGCGCCCUCUUGGCUGCUAGUUGUCGCGCUCUCCAUCUCACCAUGCUGUCUCCCGACUUUCCCGACGAUGUGCGGCGGAUGAACAAGAGGCAGCUGUACUACCAAGUCCUAAAU,0.0875 ratio
CCAGGAGUGUAACUCUCUGAGUGAUGUGCUGGACACAUUUUCAAAAGCACCUACAUUUCCUGGCCGUAACUAUUUCUUAGCAAUGUGGAUAAUUGCCAAAAGGAUAUCUGAAGACAAGAG,0.255 ratio
CCGUAUGAAAUGUGUAGUAGUGGUUUAGUCCAGGCACUUCUUACUGUUCUAAACAACCGUACCGAUUUGGAUAUGAAGCAAGAUUGUAGUCAACUGGUAGAAAGAAUAAAUGUCUUCAAA,1.45 ratio

# Study 4
# Target: Histone acetyltransferase KAT6A, winged helix 1, GST fusion (KAT6A, Homo sapiens, UniProt Q92794, residues 1-85)
# Method: protein binding microarray
# Form: double-stranded DNA, one strand shown
# Matrix: in vitro
# Concentration: not given
# Notes: 8-mer, flanks averaged, mean of 2 arrays, mostly near background
# Baseline: not given
# Direction: higher = stronger binding
# Construct (chain): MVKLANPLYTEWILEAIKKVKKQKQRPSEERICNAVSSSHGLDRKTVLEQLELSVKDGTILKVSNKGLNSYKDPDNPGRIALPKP
Oligonucleotide,E-score
GTAAAGCA,-0.0394
ATAAGTGC,-0.153
ACCTAACT,-0.0632
AAATGGCT,-0.134
CTTAGGCA,-0.255
ATATCGGA,-0.0371
ATTGCTTG,-0.118
CGATGGGC,-0.0323
